Measurements from different studies.
A part holds a random share of what one study measured. Positions count from the first letter of the parent shown.

Series 1
Target: ABI1, truncated, D143A, DHFR fusion (Arabidopsis thaliana, UniProt P49597)
Method: DHFR PCA, dose-response
Sample: yeast
Setting: Hill fit, mean, not affinity
With: (+)-ABA, dose series
Direction: lower = more sensitive
Parent: PYL1, truncated, DHFR fusion (Arabidopsis thaliana, UniProt Q8VZS8); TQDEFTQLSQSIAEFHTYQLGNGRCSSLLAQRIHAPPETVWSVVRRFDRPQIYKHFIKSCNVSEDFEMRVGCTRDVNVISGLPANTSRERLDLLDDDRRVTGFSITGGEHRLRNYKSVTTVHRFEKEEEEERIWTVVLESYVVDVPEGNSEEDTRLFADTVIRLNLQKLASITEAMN
| Change | ABA EC50 [µM] |
| --- | --- |
| H55K | 0.478 |
| L166V | 567 |
| V143I | 185 |
| R123A | 2.95 |
| P83H | 206 |
| R155W | 170 |
| T106M | 7.68 |
| T73Q | 2.86 |
| V70I | 1.84 |
| E109C | 11.6 |
| T119S | 72.8 |
| R98L | 5.79 |
| D48A | 63.1 |
| D153M | 336 |
| F66T | 6.26 |
| R88E | 1.96 |
| E128Q | 1.77 |
| K116Y | 308 |
| F157C | 754 |
| A35H | 598 |
| V121I | 3.76 |
| Q51H | 2.23 |
| D159Y | 641 |
| R32P | 5.43 |

Series 2
Target: CCNE1, cyclin fold, Cln2 fusion (human)
Method: yeast growth competition, sequencing
Sample: yeast
Setting: weak parent motif
Reference: not given
Direction: higher = stronger binding
Parent: MASTL docking peptide (human); PMIAKNLMCELDE
| Change | normalised enrichment score |
| --- | --- |
| L7Q | -0.382 |
| E10K | 0.216 |
| A4K | 0.592 |
| L7P | -0.201 |
| L11K | -0.0707 |
| D12A | 0.138 |
| C9N | 0.112 |
| N6R | 0.12 |
| L7R | 0.299 |
| M8G | 0.00127 |
| K5Q | -0.176 |
| D12P | -0.112 |
| M8E | 0.124 |
| M2Y | 0.34 |
| C9G | -0.118 |
| L11D | -0.456 |
| K5I | 0.383 |
| K5C | 0.249 |
| N6E | -0.207 |
| I3S | -0.306 |
| M2S | 0.244 |
| E10A | 0.0402 |
| A4N | 0.188 |
| L11E | 0.056 |
| A4L | -0.0276 |

Series 3
Target: UBE2E2 UBC core domain (UniProt Q96LR5)
UniProt Q96LR5, sequence (whole entry, looked up): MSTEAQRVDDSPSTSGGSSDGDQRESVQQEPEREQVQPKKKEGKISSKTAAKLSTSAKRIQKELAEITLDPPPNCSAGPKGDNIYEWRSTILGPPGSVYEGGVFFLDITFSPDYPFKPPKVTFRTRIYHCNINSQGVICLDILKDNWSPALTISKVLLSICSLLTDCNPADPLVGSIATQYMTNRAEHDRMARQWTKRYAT
Method: yeast two-hybrid
Sample: yeast
Setting: mostly zero background
Reference: not given
Direction: higher = stronger interaction
B1: TRIM34 RING domain (UniProt Q9BYJ4); chain ILLNVQEEVTCPICLELLTEPLSLDCGHSLCRACITVSNKEAVTSMGGKSSCPVCGISYSFEHLQA
B2: UBE4B RING domain (UniProt O95155); chain KNARAEIDYSDAPDEFRDPLMDTLMTDPVRLPSGTIMDRSIILRHLLNSPTDPFNRQTLTESMLEPVPELKEQIQAWMREKQNSDH
B3: MARCHF2 RING domain (UniProt Q9P0N8); chain RLLSTVIRALDTPSDGPFCRICHEGANGECLLSPCGCTGTLGAVHKSCLEKWLSSSNTSYCELCHTEFAVEKRPRPLTEWL
B4: NHLRC1 RING domain (UniProt Q6VVB1); chain MREAEISLLECKVCFEKFGHRQQRRPRNLSCGHVVCLACVAALAHPRTLALECPFCRRACRGCDTSD
B5: RNF115 RING domain (UniProt Q9Y4L5); chain TQEQVDMGLECPVCKEDYTVEEEVRQLPCNHFFHSSCIVPWLELHDTCPVCRKSLNGEDSTR
B6: PJA2 RING domain (UniProt O43164); chain DHTAIGQEQCCPICCSEYIKDDIATELPCHHFFHKPCVSIWLQKSGTCPVCRRHFPPAVIEA
B7: RFPL3 RING domain (UniProt O75679); chain MAALFQEASSCPVCSDYLEKPMSLECGCTVCLKCINSLQKEPHGEDLLCCCCSMVSQRNKIRP
| Molecule | lacZ reporter activity |
| --- | --- |
| B1 (TRIM34 RING domain) | 0 |
| KITELNPHLMCALCGGYFIDATTIVECLHSFCKTCIVRYLETNKYCPMCDVQVHKTRPLL (PCGF2 RING domain (UniProt P35227)) | 7440 |
| B2 (UBE4B RING domain) | 0 |
| SNNDLASLFECPVCFDYVLPPILQCQSGHLVCSNCRPKLTCCPTCRGPLGSIRNLA (SIAH1 RING domain (UniProt Q8IUQ4)) | 0 |
| B3 (MARCHF2 RING domain) | 0 |
| EIKDYKARLTCPCCNMRKKDAVLTKCFHVFCFECVKTRYDTRQRKCPKCNAAFGANDFHR (RNF20 RING domain (UniProt Q5VTR2)) | 0 |
| B4 (NHLRC1 RING domain) | 0 |
| B5 (RNF115 RING domain) | 0 |
| AAQLLEEKLTCAICLGLYQDPVTLPCGHNFCGACIRDWWDRCGKACPECREPFPDGAELR (TRIM65 RING domain (UniProt Q6PJ69)) | 0 |
| B6 (PJA2 RING domain) | 0 |
| B7 (RFPL3 RING domain) | 0 |
| FLSKVEETFQCICCQELVFRPITTVCQHNVCKDCLDRSFRAQVFSCPACRYDLGRSYAMQ (UHRF1 RING domain (UniProt Q96T88)) | 0 |

Series 4
Target: Ras GTPase-activating protein-binding protein 1, full length (G3BP1, Homo sapiens, UniProt Q13283)
UniProt Q13283, sequence (whole entry, looked up): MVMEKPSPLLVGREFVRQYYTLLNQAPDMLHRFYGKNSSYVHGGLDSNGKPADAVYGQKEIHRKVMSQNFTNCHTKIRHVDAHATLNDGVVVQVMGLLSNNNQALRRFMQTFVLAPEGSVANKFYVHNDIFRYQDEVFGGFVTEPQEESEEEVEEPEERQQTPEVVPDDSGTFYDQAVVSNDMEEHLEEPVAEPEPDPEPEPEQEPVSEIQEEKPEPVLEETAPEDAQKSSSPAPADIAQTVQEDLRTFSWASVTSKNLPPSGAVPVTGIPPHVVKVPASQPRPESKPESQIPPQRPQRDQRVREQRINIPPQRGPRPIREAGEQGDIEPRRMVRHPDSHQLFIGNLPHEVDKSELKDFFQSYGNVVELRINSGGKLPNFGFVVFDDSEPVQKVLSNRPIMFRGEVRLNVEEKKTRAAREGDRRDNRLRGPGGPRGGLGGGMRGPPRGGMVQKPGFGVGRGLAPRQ
Method: RNA Bind-n-Seq
Form: RNA
Sample: in vitro
Tested at: 200 nM
Setting: whole 134-nt RNA, ends assumed
With: 150 mM LiCl
Reference: input library
Direction: higher = stronger binding
Each molecule: 7-deaza-guanosine replaces G
Constant ends, left off below: GGGAGUUCUACAGUCCGACGAUC … UGGAAUUCUCGGGUGUCAAGG
| Sequence | log2 enrichment |
| --- | --- |
| AAGUCCUGUGCUACACAUCGUAUGUACCGAAUCGGCCCCGGGCCCCGGGGCCCCGGGAAAGUAUUAUGUUACGCCGUUCGGAUCUGCACU | -1.94 |
| GUCCUGUGCUACACAUCGUAUGUACCGAAUCGGGGUUUUUUGGUUUUUUGGUUUUUUGGAAAGUAUUAUGUUACGCCGUUCGGAUCUGCA | -0.91 |
| CUCAAGUCCUGUGCUACACAUCGUAUGUACCGAAUCGGGAAGGGGAAGGGAAGGAAAGUAUUAUGUUACGCCGUUCGGAUCUGCACUUCC | -0.303 |
| AGUCCUGUGCUACACAUCGUAUGUACCGAAUCGGCCCCCCGGCCCCCCGGCCCCCCGGAAAGUAUUAUGUUACGCCGUUCGGAUCUGCAC | 0.253 |
| ACCAUGCAGGUGGGCAUCUUUGGGAACUGGGGCAAGGGGGGGAUAGGGAGGGGGGUAACACUUUGGGAACAGGUGGUCCCAGGUCGUUUC | 0.555 |
| AUCAUUUCAUUUUUAUAAUUAUACAUUAGACAUUGGCACUUGUGUAAAACUGUCCCUGCAGAUUGAGCAGGAAGUAAAAACAAAUGGAAA | -1.31 |
| UGUCCCAGGGAACGCCGGUGCAGAUGUGCUUCUUGUGGGCUCAGAGGCCUUCGUGCUGCUGGACGGGCAGGAGCUGACGCCUCGCUGGAC | -2.18 |
| AAGUCCUGUGCUACACAUCGUAUGUACCGAAUCGGGGAAAAAGGGGUGGGGUGGGGAAAGUAUUAUGUUACGCCGUUCGGAUCUGCACUU | -0.663 |
| UCCAGUCUAGCUUUGGAGAAGCGCCAACCUGCUCACUGCCGCCGACCAGACUGCAUGUUUGGUUGUACUUGUUUGAAAAGAAAAGUUGUA | -0.958 |
| UCCUCAAGUCCUGUGCUACACAUCGUAUGUACCGAAUCGGGAGGGGAGGAGGAAAGUAUUAUGUUACGCCGUUCGGAUCUGCACUUCCAG | 0.067 |
| UCAAGUCCUGUGCUACACAUCGUAUGUACCGAAUCGGCCCGGGCCCGGGCCCGGGAAAGUAUUAUGUUACGCCGUUCGGAUCUGCACUUC | -0.615 |

Some of these lines once more (series 1):
| Change | ABA EC50 [µM] |
| --- | --- |
| V121I | 3.76 |
| Q51H | 2.23 |
| P83H | 206 |
| R155W | 170 |
| R32P | 5.43 |
| D153M | 336 |
| T73Q | 2.86 |
